{"data": "Results pooled from the literature", "note": "Each numbered part is a random draw from the data of one study; scales do not carry over between parts."}
{"data": "Sample 1", "target": "RING finger protein unkempt homolog, zinc fingers 1-6, SBP tag (UNK, Homo sapiens, UniProt Q9C0B0, residues 30-357)", "method": "RNA Bind-n-Seq", "form": "RNA", "medium": "in vitro", "tested at": "100 nM", "setting": "RNA with constant flanks, vertebrate orthologous sites, ends assumed", "relative to": "input RNA pool", "direction": "higher = stronger binding", "constant ends, left off below": "GGGAGUUCUACAGUCCGACGAUC … CAACAGAGGAUUGAGCAUCA", "chain of UniProt Q9C0B0 (30-357, looked up)": "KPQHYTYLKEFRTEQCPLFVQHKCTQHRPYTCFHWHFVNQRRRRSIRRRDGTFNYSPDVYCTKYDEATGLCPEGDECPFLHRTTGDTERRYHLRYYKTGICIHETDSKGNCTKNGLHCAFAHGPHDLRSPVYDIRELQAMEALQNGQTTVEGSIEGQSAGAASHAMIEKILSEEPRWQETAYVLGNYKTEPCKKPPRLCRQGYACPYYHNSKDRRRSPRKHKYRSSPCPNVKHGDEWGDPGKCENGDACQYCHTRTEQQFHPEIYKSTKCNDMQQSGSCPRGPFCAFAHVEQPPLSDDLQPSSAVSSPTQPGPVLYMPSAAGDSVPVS"}
{"Strand": "AUCUCUCACUUCAUAGGUCCAACAAUUGCUCUGAGUUUUGAAAUAUUUUGCAGUUUAAAUGAGGUCUGCUCCAGCAGACAUUCAUGCAGUGCCCCAUAGUCUGAAUGCUUUCUGAAGUGC", "bound/input enrichment [ratio]": 0.848}
{"Strand": "UCAGUCCCCUGGACUGGGACAGAUUUUUUUUAACGUCUUGAAACUUAAAUUCUGUGCUUGUAGGAGACUGAAACCUUUUUGUCUUUUUUUUUUUAAACAAACAACCUCCACCUCCAGUGG", "bound/input enrichment [ratio]": 0.493}
{"Strand": "UCCUAAAGCUUUGUGUUUGGCUGCACCUGCAUAAGCUGCUACAAAUAGAUAAAGAAUUCAUAGCCUGUAUCUAUCAUUUAGAUGCAUGGAAAAAUGGGCUUUGCACACAAUGGGUUUGAA", "bound/input enrichment [ratio]": 0.75}
{"Strand": "UGCUCUCCUCCUGGGUGCGUGACUGAGGGCCAGGUGCCCUCCUCCAGUGCCGCGAGGGGUGCAUAGUGGUUUGGGGCUGCCUCCGAGUCCCCAAAGCCUUGGGGCAGAAGUGACAGUAGA", "bound/input enrichment [ratio]": 0.271}
{"Strand": "CUACAAUAAUGAAAAACCUACCAGGAAUUAUUUUAUUUUUCAUUUCCCCUUGGGCAUUCCUAGUCUUUUUCCCCCCAGGCAGAUCAUUCUGAGUGUGCGAGUGUGUGUGCACAUGUUACA", "bound/input enrichment [ratio]": 0.956}
{"Strand": "GGGCGGCUGGUGGGGGAAUCCCCUGCCUUGGCCUUGCCUCUCCUUCCUGCCACGUGCCCCUAGUUAUUUUUUUUUUUUAACACCAUGUGAUUAAGGUCGGCGCUGCCUCCCCCGACCCAC", "bound/input enrichment [ratio]": 2.49}
{"Strand": "GAUUAGUGUCAUACCAGCAUAUUAACCUCUCGUCUGUGCACAGCUUCAAAUGUUACCGUCUAGUUAGAUUUUUAUUUAAAAUAUGAAAAACCGCUUUUCCCAAGACUUUUUUAAAAACAA", "bound/input enrichment [ratio]": 2.52}
{"Strand": "GAGUUAGAAGAGUUAGCAUCUUUAUUUUUGUAUCAAAGAUAAAGGUUAUUUUGAAAUUAUUAGAGUUUUUACACAACUCUGCCGUUGUAAGCAAAUGGUCCGACCAUUGGGAUCCCCCCU", "bound/input enrichment [ratio]": 2.17}
{"Strand": "UCAAGCUGUUCUUUCACCUUUCCUGUAAAUAAUGGAUGAUCUUUUUAAAAAAAAAUUUUUAAAUGCUGUUUUAACAGUGUGGGUAGACCAUAAAUGUAUGUGUUGAAUUUAUUCAUUUUU", "bound/input enrichment [ratio]": 0.409}
{"Strand": "AGUAGUUGUAAGCUUGUUUGCACAGUUCUUUUUUUCCAUUGGAAAUGGAAUUCAUUGCCUUAGGUCUUUUUAAAUAGUGUAUUAUUAUCGUUGGGGCUGGCUCUAUGCUUGAAAACCAGU", "bound/input enrichment [ratio]": 3.36}
{"Strand": "UCAGUCUUCCACAUAGGGUUGGCCUCAAAUCUAUAGGAUUUACGACAAAUAUAUUAUAUCUAGUUAAGUUGAGUUUAAUAUUUUUUUAUUAGCCUGUAAAUAAAGAUGGCAUCUUCUACA", "bound/input enrichment [ratio]": 1.39}
{"data": "Sample 2", "target": "RNA binding protein fox-1 homolog 2, RRM domain, GST-SBP tag (RBFOX2, Homo sapiens, UniProt O43251-10, residues 100-194)", "method": "RNA Bind-n-Seq", "form": "RNA", "medium": "in vitro", "tested at": "365 nM", "setting": "natural RNA segment, single round, ends assumed", "relative to": "no-protein control", "direction": "higher = stronger binding", "constant ends, left off below": "GGGAGUUCUACAGUCCGACGAUC … UGGAAUUCUCGGGUGCCAA", "Construct (chain)": "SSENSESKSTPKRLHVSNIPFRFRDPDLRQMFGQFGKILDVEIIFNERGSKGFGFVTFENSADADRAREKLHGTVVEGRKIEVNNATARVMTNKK"}
{"Strand": "CGACUCAAGGGACGUGUGUACAUAUGUAAAUGAGAAAUAGAGACGUGUCAACAGAUGCAUUCAUUUCUCUUGGAAUGUGUAUUGUUUUUAUUUUGCGAAACAAAACAAAA", "RBNS enrichment (R)": 0.292}
{"Strand": "GGGGAGGGGAAGUUCUGAGAAUGGAGUCAUUCUUAGUGUUCAGGUGCUAAAGGUUGUUCUCCUGGGGGAACAGAGUGACUGAAACUGGCUUGUUUGCUACAAGCCCUACC", "RBNS enrichment (R)": 0.533}
{"Strand": "AUAUAUAAGAGGCACACAUGUCCACGUGGAGGGCACAGUCAGGGAGAGUUGGAAAUGCAAAAUUGCCAAAUAGCACAAACAGUGAAUGUUUUCCAGUUAUACGAGAUGCC", "RBNS enrichment (R)": 1.59}
{"Strand": "GGGGGUUAGGCCUGUGUGCCCCCUCAACCCAUAACUGCUGUCAAACAAAGCAAACCUUGUAAAGUGAUAGCCUCCUGGAUUUUUCCUCCCUGCCUUCUGACGCUCAGCAG", "RBNS enrichment (R)": 0.869}
{"Strand": "CAGUAGGCAGGCUGAGUGGCCCAGAGCACUCCUGGAAGUGGGACUCCCCUGCCUUGCAAAUGUGCCUCUCCAGACUGCUCCUGCACUUACCCCCUCCCCGCAGCACCUUC", "RBNS enrichment (R)": 4.2}
{"Strand": "CUGUCAAAGGGUGUUUUCGGAAUCACUUUUGUGUUUCGUAUAGUAAAACAAUGUGAUUCAUUCCAAAGUAACAGAAGGCUAUUUGUAAGAAAGAUAAAGGCUUGUGAACA", "RBNS enrichment (R)": 0.431}
{"Strand": "ACCUGUCACGGGGAACAUGGAGCCUUGGUGUAUUUUUCUUUUCUUUUUUUAAUGAAUCAAUAGCAGCGUCCAGUCCCCCAGGGCUGCUUCCUGCCUGCACCUGCGGUGAC", "RBNS enrichment (R)": 0.657}
{"Strand": "AUCCAAUGGGAAUGAAUGUAGAUGGCUAAAGGACUCUUCCUCAGUGUGGUGUAUAUUUCAACAGGGACCCUUGUAAAUUGUCAUAUGCCAAUAAAAUGUCCUAAGUGGUA", "RBNS enrichment (R)": 1.21}
{"Strand": "AAGGGGAUGUGAGGGCCUCCACUGAAGCAGGGAGGCAGCUGUGUAAUCCUAUGUCAGCUCUCUUAGGAAGCCCCAGUACUUAUAUUGGGCAUGCACUUGCCCUUAAAAAC", "RBNS enrichment (R)": 0.503}
{"Strand": "GGAAGGUGUGUGAGCAGUGCCAUGACUCUGCCCCUUACCUAAUCCCACAUCUCUCUAAUGAUAAGACAUUGGCUCGCCUCUGACCAGAGCCCCAGCACCAGAGAGCGGAA", "RBNS enrichment (R)": 0.948}
{"Strand": "GUCCUGUCCCCUGUAGCUGCUUUCUUAGAUGGAAACAGGCUAACGAAGAGAGGGACACUGUCGUGUCAGUAGCCGCAGGGUCCCCUUUAAGAUGUGUAUAUCGACACUAG", "RBNS enrichment (R)": 0.343}
{"Strand": "UUGGGUCUCAGACUCAGUUUCCCCGUUCAUACAUACAGGGAGUAUGAAGUCAGGUAGCCUAAGAUCUCCCACUCCCUGCCUCCCUUUGACGUGGUACAGCCACCCCCACC", "RBNS enrichment (R)": 0.269}
{"data": "Sample 3", "target": "Fragile X messenger ribonucleoprotein 1, C-terminal low-complexity region (Fmr1, Mus musculus, UniProt P35922)", "method": "RNA Bind-n-Seq", "form": "RNA", "medium": "in vitro", "tested at": "200 nM", "setting": "whole 134-nt RNA, ends assumed", "added": "150 mM LiCl", "relative to": "input library", "direction": "higher = stronger binding", "all molecules": "7-deaza-guanosine replaces G", "constant ends, left off below": "GGGAGUUCUACAGUCCGACGAUC … UGGAAUUCUCGGGUGUCAAGG"}
{"Strand": "GUCCUGUGCUACACAUCGUAUGUACCGAAUCGGGUUUUUUUGGGAAAAAAAGGGUGGGAAAGUAUUAUGUUACGCCGUUCGGAUCUGCAC", "log2 enrichment": -2.39}
{"Strand": "UUCAUUCCCAAGGGAGGCCAUGUCUGGAGAUAGACCUUGAAUUUAAUAAAUUUUAGGCACUAUACCAUUUCAGUGGAGAAAAUUGUUGGG", "log2 enrichment": -2.66}
{"Strand": "ACCAUGCAGGUGGGCAUCUUUGGGAAGUGGGGCAAGUGGGGGAUAGGGAGGGGGGUAACACUUUGGGAACAGGUGGUCCCAGGUCGUUUC", "log2 enrichment": 1.4}
{"Strand": "CACAGACAACACGCACCCACACAGACACAGAGGGAAGGGGUUGGGAUGGGGACAGGGUGCACAGAAGGGCGGGGUAGGACCCCAGCCCCU", "log2 enrichment": 0.178}
{"Strand": "GCAGGAAGUAAAAACAAAUGGAAAUGCUUCGGAUAGUGGCAGGGGUAAAGGUUGCUAAGGAAAGGGUGGGAUGGGAGUGGGUAAAGAGUU", "log2 enrichment": 1.76}
{"Strand": "CACAGACAACACGCACCCACACAGACACAGAGGAAAGGGGUUGGGAUGGGGACAGGGUGCACAGCAGGGCGGGGUAGGACCCCAGCCCCU", "log2 enrichment": 0.487}
{"Strand": "CAAGUCCUGUGCUACACAUCGUAUGUACCGAAUCGGGUGGGUUUGGGAAAAAGGGAAAGUAUUAUGUUACGCCGUUCGGAUCUGCACUUC", "log2 enrichment": -0.845}
{"Strand": "ACCAUGCAGGUGGGCAUCUUUGGGAAGUGGGGCAAGGGGCGGAUAGGGAGGGGGGUAACACUUUGGGAACAGGUGGUCCCAGGUCGUUUC", "log2 enrichment": 0.96}
{"Strand": "UCAGGUCCUUAAGUACCUUCGUAUUACUUUUAGCAGGAAAAACGGCAUGUUUUGCAUCUGGUGUGCAAUGUGAAGAGUCCUUCAAAAAUG", "log2 enrichment": -0.973}
{"Strand": "CAAGUCCUGUGCUACACAUCGUAUGUACCGAAUCGGAAAGGAAAGGUUUUUUUGGAAAGUAUUAUGUUACGCCGUUCGGAUCUGCACUUC", "log2 enrichment": -1.4}
{"Strand": "ACCAUGCAGGUGGGCAUCUAUGGGAAGUGGGGCAAGGGGGGGAUAGGGAGGGGGGUAACACUUUGGGAACAGGUGGUCCCAGGUCGUUUC", "log2 enrichment": 1.49}
{"data": "Sample 4", "target": "Sal-like protein 4, full length isoform B (SALL4, Homo sapiens, UniProt Q9UJQ4-2, residues 1-616)", "method": "universal PBM", "form": "double-stranded DNA, one strand shown", "medium": "in vitro", "tested at": "not given", "setting": "8-mer, flanks averaged, mean of replicates", "direction": "higher = stronger binding", "Target sequence (chain)": "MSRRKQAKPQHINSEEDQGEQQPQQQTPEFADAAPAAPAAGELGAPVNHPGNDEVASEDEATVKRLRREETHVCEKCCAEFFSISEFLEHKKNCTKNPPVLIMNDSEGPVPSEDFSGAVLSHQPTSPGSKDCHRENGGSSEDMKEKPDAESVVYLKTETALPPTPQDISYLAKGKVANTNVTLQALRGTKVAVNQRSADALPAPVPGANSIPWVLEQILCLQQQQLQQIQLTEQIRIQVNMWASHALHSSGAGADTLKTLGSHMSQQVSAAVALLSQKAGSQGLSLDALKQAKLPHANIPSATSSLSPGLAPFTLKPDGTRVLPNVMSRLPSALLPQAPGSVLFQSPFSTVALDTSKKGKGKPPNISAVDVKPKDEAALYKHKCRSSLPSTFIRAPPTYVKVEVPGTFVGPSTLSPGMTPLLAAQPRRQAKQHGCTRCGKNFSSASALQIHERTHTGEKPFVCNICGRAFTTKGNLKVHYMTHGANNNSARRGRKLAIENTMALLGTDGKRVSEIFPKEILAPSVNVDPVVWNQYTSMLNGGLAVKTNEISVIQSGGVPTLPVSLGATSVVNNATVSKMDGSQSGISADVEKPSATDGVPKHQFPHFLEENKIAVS"}
{"Strand": "GACGAGGC", "E-score": -0.249}
{"Strand": "CATCCTCA", "E-score": -0.0934}
{"Strand": "CCCTGGTC", "E-score": -0.322}
{"Strand": "AGGTAAGC", "E-score": -0.0516}
{"Strand": "ATCCACAA", "E-score": 0.186}
{"Strand": "GACTGATA", "E-score": 0.0448}
{"Strand": "AAAGAGCC", "E-score": -0.224}
{"Strand": "CTGTGTCC", "E-score": -0.115}
{"Strand": "ACCCCCAA", "E-score": 0.0478}
{"Strand": "ACCGTCCG", "E-score": -0.313}
{"Strand": "CTCCTTTA", "E-score": 0.118}
{"Strand": "GGAAATAA", "E-score": 0.306}
{"Strand": "CATTATGC", "E-score": 0.21}
{"Strand": "GAGCATCA", "E-score": 0.0183}
{"Strand": "GGGATTCA", "E-score": -0.204}
{"Strand": "GGATTACA", "E-score": 0.15}
{"Strand": "AGGACGAA", "E-score": -0.152}
{"Strand": "CGGGACAC", "E-score": -0.305}
{"Strand": "CCGAGAAA", "E-score": 0.0797}
{"Strand": "TGCATAAA", "E-score": 0.305}
